Measured values collected from several papers.
Each line is one published result; not all experiments were run side by side. “And” joins repeats or separate records; there may be more than shown. ± marks the error that the study gave.
Cell line: HeLa

CC[C@H](C)[C@@H]([C@@H](CC(=O)N1CCC[C@H]1[C@H](OC)[C@@H](C)C(=O)N[C@H](C)[C@@H](O)c1ccccc1)OC)N(C)C(=O)[C@@H](NC(=O)[C@@H](NC)C(C)C)C(C)C
IC50 (cell proliferation, MTT; without transthyretin): 0.0013 µM

COC(=O)[C@@H](NC(=O)[C@@H](NC(=O)[C@@H](NC(=O)[C@@H]1CCCN1C(=O)[C@H](C)NC(=O)OC(C)(C)C)C(C)C)C(C)C)C(C)C
IC50 (cell growth or viability, SRB): 3.29 µM and 4.21 µM and 3.97 µM

CC(C)=CCc1c(O)cc2c(c1O)C(=O)CC(c1ccc(O)cc1)O2 (stereo not drawn)
IC50 (cell growth or viability, MTT; 48 h): 27.9 µM

Cc1c(Cl)c(=O)oc2cc(OCCCCCC[Se]C#N)ccc12
GI50 (cell growth or viability, SRB): 9.8 µM

c1cnc2c(c1)c1nccnc1c1cccnc12
IC50 (cell growth or viability, MTT; 48 h): > 50 µM

C[C@@H](N)[C@H](O)CCCCCCCC(=O)CCCCCCCCCCCCCC[C@@H](O[C@@H]1O[C@H](CO)[C@H](O)[C@H](O)[C@H]1O)[C@H](N)CO
growth inhibition (cytotoxicity; concentration not given): 99 ± 0.05%

COC1CN([C@H]2CC[C@H]([C@@H](C)n3c(C)c(C(=O)NCc4c(SC)cc(C)[nH]c4=O)c4ccccc43)CC2)C1
EC50 (histone methylation reduction, AlphaLISA, measured: H3K27me3; 72 h): 0.002 µM

C[C@H](N)[C@@H](CCCCCCCCCCCCCCC(=O)CCCCCCC[C@@H](O)[C@@H](C)N)O[C@@H]1O[C@H](CO)[C@H](O)[C@H](O)[C@H]1O
growth inhibition (cytotoxicity; concentration not given): 99 ± 0.05%

CNC(=S)NCCCC[C@H](NC(=O)CCc1ccccc1)C(=O)N[C@@H](CCCNC(=N)N)C(=O)N[C@@H](CC1CCCCC1)C(=O)N[C@H](CCCCN)C(=O)N[C@@H](CC1CCCCC1)C(N)=O
EC50 (cell growth or viability, MTT; 72 h): 48.7 µM

Some of these lines once more:
COC1CN([C@H]2CC[C@H]([C@@H](C)n3c(C)c(C(=O)NCc4c(SC)cc(C)[nH]c4=O)c4ccccc43)CC2)C1
EC50 (histone methylation reduction, AlphaLISA, measured: H3K27me3; 72 h): 0.002 µM
